Results from different studies.
Lines come from different studies, so protocols differ.
Cell line: HEK293

Under viability, `CCOC(=O)c1cc2cc(C(=O)N3CCN(CCOc4ccccc4)CC3)ccc2[nH]1` is recorded as “not toxic” (MTT; concentration not given, 18 h, all tested concentrations).
`CC1(C)CC(=O)C2=C(C1)OC(N)=C(C#N)C2c1ccccc1` (stereo not drawn) has a viability of 77.6% (MTT; MCF7 IC50, 24 h).
`COc1cccc(/C=N/NC(=O)COc2ccc(/C=N/NC(=O)C(C)c3ccc(CC(C)C)cc3)cc2)c1O` (stereo not drawn) gave a viability of 39.4% (MTT; 150 µM, 48 h).
`NC[C@H]1O[C@H](O[C@H]2[C@H](OCCCCCCCCCCCCn3cc(CNc4nc(NCc5cn(CCCCCCCCCCCCO[C@@H]6[C@@H](O)[C@H](N)C[C@H](N)[C@H]6O[C@H]6O[C@H](CN)[C@@H](O)C[C@H]6N)nn5)nc(NCc5cn(CCCCCCCCCCCCO[C@@H]6[C@@H](O)[C@H](N)C[C@H](N)[C@H]6O[C@H]6O[C@H](CN)[C@@H](O)C[C@H]6N)nn5)n4)nn3)[C@@H](O)[C@H](N)C[C@@H]2N)[C@H](N)C[C@@H]1O` has a viability of 100% (PrestoBlue; 2 µM, 48 h; reference: untreated).
The viability of `CC(C)Cc1ccc(C(C)C(=O)NN=Cc2ccc(OCC(=O)NN=Cc3cccc([N+](=O)[O-])c3)cc2)cc1` (stereo not drawn) is reported as 94.3% (MTT; 100 µM, 48 h).
`NCC1OC(OC2C(N)CC(N)C(OC3OC(CO)C(O)C(N)C3O)C2OCCCCCCCCCCCCn2cc(CNc3nc(NCc4cn(CCCCCCCCCCCCOC5C(OC6OC(CN)C(O)CC6N)C(N)CC(N)C5OC5OC(CO)C(O)C(N)C5O)nn4)nc(NCc4cn(CCCCCCCCCCCCOC5C(OC6OC(CN)C(O)CC6N)C(N)CC(N)C5OC5OC(CO)C(O)C(N)C5O)nn4)n3)nn2)C(N)CC1O` (stereo not drawn) gave a viability of 70% (PrestoBlue; 2 µM, 48 h; reference: untreated).
`N=C(N)NCCC[C@@H]1NC(=O)[C@H](CCCCN)NC(=O)[C@@H](Cc2ccc(O)cc2)NC(=O)[C@H](CC(=O)O)NC(=O)CNC1=O` — result for viability: “no effect” (CCK-8; 250 µM, 24 h).
`CC(C)Cc1ccc(C(C)C(=O)N/N=C/c2ccc(OCC(=O)N/N=C/c3cccc(O)c3)cc2)cc1` (stereo not drawn) has a viability of 49.6% (MTT; 80 µM, 48 h).
The viability of `CC1(C)CC(=O)C2=C(C1)OC(N)=C(C#N)C2c1ccccc1F` (stereo not drawn) is reported as 89.6% (MTT; MCF7 IC50, 24 h).

For quick reference, copied from above:
`COc1cccc(/C=N/NC(=O)COc2ccc(/C=N/NC(=O)C(C)c3ccc(CC(C)C)cc3)cc2)c1O` (stereo not drawn) gave a viability of 39.4% (MTT; 150 µM, 48 h).
